Experimental data collected from several papers.
Parts stem from different laboratories: compare values within a part only.

Set 1
Target: Histone acetyltransferase KAT6A, winged helix 2, GST fusion (KAT6A, Homo sapiens, UniProt Q92794, residues 85-181)
Method: protein binding microarray
Form: double-stranded DNA, one strand shown
Matrix: in vitro
Concentration: not given
Notes: 8-mer, flanks averaged, mean of 2 arrays, mostly near background
Relative to: not given
Reading: higher = stronger binding
Construct (chain): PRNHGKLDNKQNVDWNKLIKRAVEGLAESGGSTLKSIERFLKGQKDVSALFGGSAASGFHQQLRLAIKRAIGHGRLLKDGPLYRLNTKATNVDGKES
Oligonucleotide | E-score
CCGGCCGA | 0.201
GCACAAGC | 0.0646
GTTGGGAA | 0.0712
AAAAATCT | 0.0579
AGAATTTA | -0.0602
AGTGGTCG | 0.0446
CACTTGCA | -0.0314
GCCCTTAC | -0.0106
AGCTTAGG | -0.0835
GACTGTTA | -0.154
AGAGGATA | -0.0486
GTCTCACA | -0.0608
AAACAAAT | 0.0699
CGCGCGAC | 0.13
GCCCATCC | 0.0492
TAGGTAAA | -0.216
CGCAACAG | 0.0889
CGTATTGC | -0.099
CTGGCATA | 0.0631
GTTAAAAC | -0.0328
CGCTAGGA | 0.0527
ACAGGACC | 0.0601
GTCGTCAA | -0.0397
AGTTCCAA | 0.115
CGTATGTA | -0.346

Set 2
Target: RNA binding protein fox-1 homolog 2, RRM domain, GST-SBP tag (RBFOX2, Homo sapiens, UniProt O43251-10, residues 100-194)
Method: RNA Bind-n-Seq
Form: RNA
Matrix: in vitro
Concentration: 365 nM
Notes: natural RNA segment, single round, ends assumed
Relative to: no-protein control
Reading: higher = stronger binding
Shared flanks, not repeated: GGGAGUUCUACAGUCCGACGAUC … UGGAAUUCUCGGGUGCCAA
Construct (chain): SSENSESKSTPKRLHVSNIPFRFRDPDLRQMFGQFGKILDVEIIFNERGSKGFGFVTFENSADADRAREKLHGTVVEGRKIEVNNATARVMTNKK
Oligonucleotide | RBNS enrichment (R)
GCUAGUGGAUAUUGGAGUUACAUGAGCUACGUGUUAAUAUUCAGUCUCCAGAAUAAACGUCCCAGCGUUGCCCUGACCUGGCUGGAGGGCGCAUUGCUGUCUGUGCCUGU | 0.459
GGAGAUGGAGCUUUCUAUGGCCCAAAGGUUGACAUACAGAUUAAAGAUGCGAUUGGGCGGUACCACCAGUGUGCAACCAUCCAGCUGGAUUUCCAGUUGCCCAUCAGAUU | 0.247
AUAUCAAUUUCUUAAAGAACACAAAAUGUUUCCUCCCUAGCAAAACUAUUUAAGAGCCAAUUAAACUAUGAAAUAGUUAUAAAAUUAUUUUUAAUAUUUAAGGCCUUGAA | 0.9
UCUAUUCUGUACUGUGACUUUAGUUCAGGAAGUUUUGUUUUGUGUUUUAAAUAAAAGGAAAGAGCAAGUUUGCUCAGUCAAGUGAUCAGAUCCCGAAUCUAGAUUCCCAG | 0.392
UAGCUCUGUGCUCUCACCAGACAAUGAAUGAACUAUGAAAGAUUUAGUCAACAGAAACUAUUUUAGGGUAUGUUUAGUUGGUAAAUGCUUCAUGUUCAUGGAUGACACAA | 0.377
CAUUCUUCAUCUAUUUUAGUUAGCACUUUGUAUCGUUAUAUACAGUUUACAAUACAUGUAUAACUUGUAGCUAUAAACAUUUUGUGCCAUUAAAGCUCUCACAAAACUUU | 0.286
GCUGAGCCAGGAGGAUCGCUUGAGCCCAGGAGGCGGAGGUUGCAGUGAGCUGAGAUGGCACCACUUAUUGCACUCCAGCCCGGGCGACAGAGCGAGACUCCAUCUACCAG | 0.526

Set 3
Target: Interferon regulatory factor 7, full length, phosphomimetic (IRF7, Homo sapiens, UniProt Q92985, residues 1-503, S101K/S471D/S472D/S475D/S476D/S477D/S483D/S484D/S487D)
Method: protein-binding microarray
Form: double-stranded DNA, one strand shown
Matrix: in vitro
Concentration: 250 nM
Notes: 60-bp whole probe
Added: salmon DNA 0.4 mg/ml
Relative to: random background probes
Reading: higher = stronger binding
Shared flanks, not repeated: GCCTAGCAC … GTCTTGATTCGCTTGACGCTGCTG
Target sequence (chain): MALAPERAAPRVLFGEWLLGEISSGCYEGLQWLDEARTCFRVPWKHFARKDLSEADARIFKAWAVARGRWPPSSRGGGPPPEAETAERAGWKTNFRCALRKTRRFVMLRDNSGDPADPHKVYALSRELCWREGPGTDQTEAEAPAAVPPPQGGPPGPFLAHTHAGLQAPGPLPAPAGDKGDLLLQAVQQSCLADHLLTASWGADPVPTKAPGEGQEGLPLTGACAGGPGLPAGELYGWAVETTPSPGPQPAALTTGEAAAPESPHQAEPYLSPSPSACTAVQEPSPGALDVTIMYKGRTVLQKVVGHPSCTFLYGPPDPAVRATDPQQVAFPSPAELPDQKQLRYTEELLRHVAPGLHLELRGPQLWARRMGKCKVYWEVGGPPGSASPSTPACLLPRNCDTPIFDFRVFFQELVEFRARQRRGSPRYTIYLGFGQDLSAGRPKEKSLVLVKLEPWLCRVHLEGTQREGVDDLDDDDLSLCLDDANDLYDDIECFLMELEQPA
Oligonucleotide | log fluorescence
CACGGACTGCTTCTCCTGACGTGCTAG | -0.206 z-score
TCAGGACTGCTTTTCCTTTAGTGCTAG | 0.753 z-score
TCAGGTATAAACTTGGGACTGTGCTAG | -0.422 z-score
GACGGTTTCGGTTTCGGCACGTGCTAG | 13.7 z-score
TTAGGTCTCGGTTTCGGGTAGTGCTAG | 8.2 z-score
TTAGGACTGCTTCTCCTTAAGTGCTAG | 0.822 z-score
GACGGACTGGACACTGGGGATGTGCTA | -0.634 z-score
GACGGACTGGACTATCGTGACGTGCTA | -0.684 z-score
TTAGATTTCCGTTTCGATTAGTGCTAG | 5.61 z-score
TTAGGTATCGACTATGGGTTAGTGCTA | 0.0549 z-score
GACAAACTGGGGTTTCGAGACGTGCTA | 2.5 z-score
GACGGTTTCCTGATCCTGACGTGCTAG | 1.3 z-score
GACGATATTAGACTGGAGACGTGCTAG | -0.232 z-score
TTAGTTTTCGGACTGGGTTAGTGCTAG | 1.16 z-score

Set 4
Target: PABPC1L2, full length, GST fusion (mouse, UniProt A0ABA7IW68)
Method: RNAcompete
Form: RNA
Matrix: in vitro
Concentration: 20 nM
Notes: 7-mer, probes averaged, single round
Relative to: mean of 7-mers
Reading: higher = stronger binding
Construct (chain): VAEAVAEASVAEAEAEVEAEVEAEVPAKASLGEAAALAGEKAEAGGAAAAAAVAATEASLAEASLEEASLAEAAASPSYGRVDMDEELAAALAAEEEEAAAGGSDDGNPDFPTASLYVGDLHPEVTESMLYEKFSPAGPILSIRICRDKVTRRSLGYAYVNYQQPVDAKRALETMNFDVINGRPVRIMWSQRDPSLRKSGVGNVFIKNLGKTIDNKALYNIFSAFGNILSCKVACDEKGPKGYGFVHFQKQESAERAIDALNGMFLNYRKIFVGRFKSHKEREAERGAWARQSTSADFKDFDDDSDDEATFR
Oligonucleotide | 7-mer Z-score
GCCUUAC | -0.34
UAUGAAA | 0.624
GCAGACG | 0.276
AUUGAGG | 0.202
UCUUCUG | -0.445
AUAAGAC | 0.361
AGUGAAA | 1.1
CGCAUUA | -0.222
GCAGAUU | 0.0533
CAACAUC | 0.0805
CUGCCUA | -0.277
UCUAAUG | -0.249
CUUACAG | -0.197
UCCGGAU | -0.255
GACCUUU | -0.186
CUACCUG | -0.311
AGGGCGG | 0.626
GCACCAA | 0.138
CGAUGGC | -0.012
UCGGAAC | -0.0355
GUGCCGA | -0.0409
AAACGAC | 0.871
CGUCCUA | -0.411
UGGCCCA | -0.24
UUCCAUG | -0.275

Set 5
Target: Ras GTPase-activating protein-binding protein 1, RRM domain (G3BP1, Homo sapiens, UniProt Q13283)
Sequence of UniProt Q13283 (whole entry, looked up): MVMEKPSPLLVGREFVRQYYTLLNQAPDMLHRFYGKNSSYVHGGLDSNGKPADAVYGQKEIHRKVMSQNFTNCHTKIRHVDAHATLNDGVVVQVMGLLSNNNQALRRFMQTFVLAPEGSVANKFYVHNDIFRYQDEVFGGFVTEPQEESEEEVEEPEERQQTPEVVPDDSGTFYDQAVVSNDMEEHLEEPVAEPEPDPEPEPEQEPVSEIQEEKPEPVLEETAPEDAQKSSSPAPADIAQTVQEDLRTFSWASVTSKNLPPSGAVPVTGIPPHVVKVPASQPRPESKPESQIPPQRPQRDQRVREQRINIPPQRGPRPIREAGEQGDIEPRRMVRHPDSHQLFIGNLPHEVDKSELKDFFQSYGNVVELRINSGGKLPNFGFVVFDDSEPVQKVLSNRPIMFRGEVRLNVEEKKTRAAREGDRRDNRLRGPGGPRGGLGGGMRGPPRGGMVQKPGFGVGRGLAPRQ
Method: RNA Bind-n-Seq
Form: RNA
Matrix: in vitro
Concentration: 1 µM
Notes: whole 134-nt RNA, ends assumed
Added: 150 mM KCl
Relative to: input library
Reading: higher = stronger binding
Shared flanks, not repeated: GGGAGUUCUACAGUCCGACGAUC … UGGAAUUCUCGGGUGUCAAGG
Oligonucleotide | log2 enrichment
UUCCUCAAGUCCUGUGCUACACAUCGUAUGUACCGAAUCGGUGGAGGAGGAAAGUAUUAUGUUACGCCGUUCGGAUCUGCACUUCCAGCA | -0.38
UAACUUUAGAGGAGGAUCUUAUGGAUAUGGCAGUGGACGUGGAUUUGGGGAUGGCUAUAAUGGGUAUGGAGGAGGACCUGGAGGUGGCAA | -0.727
CCUGUGCUACACAUCGUAUGUACCGAAUCGGCCCCCCCGGGCCCCCCCGGGCCCCCCCGGGAAAGUAUUAUGUUACGCCGUUCGGAUCUG | -0.6
UCAAGUCCUGUGCUACACAUCGUAUGUACCGAAUCGGGUUUGGGUUUGGGUUUGGAAAGUAUUAUGUUACGCCGUUCGGAUCUGCACUUC | -0.426
ACCAUGCAGGUGGGCAUCUUUGGGAAGUGGGGCAAGGGGGGGAUAGGGAUGGGGGUAACACUUUGGGAACAGGUGGUCCCAGGUCGUUUC | 1.02
CAAGUCCUGUGCUACACAUCGUAUGUACCGAAUCGGGAGGGAAAAAGGGUUUGGGAAAGUAUUAUGUUACGCCGUUCGGAUCUGCACUUC | 0.935
CACAGACAACACGCACCCACACAGACACAGAGGGAAGGGGUUGGGACGGGGACAGGGUGCACAGCAGGGCGGGGUAGGACCCCAGCCCCU | -0.142
CCUCAAGUCCUGUGCUACACAUCGUAUGUACCGAAUCGGGCCGGCCGGCCGGAAAGUAUUAUGUUACGCCGUUCGGAUCUGCACUUCCAG | -0.509
UGGGAGGUGGAUUUUGUUUAUUUUUUUAGCUCAUUUCCAGGGGUGGGAAUUUUUUUUUAAUAUGUGUCAUGAAUAAAGAUGUUUUUGAAA | 1.35
GUCCUGUGCUACACAUCGUAUGUACCGAAUCGGGGAAAAAGGGGUUUUUGGGGAGGGGAAAGUAUUAUGUUACGCCGUUCGGAUCUGCAC | 1.19

Excerpt of the above (set 4):
Oligonucleotide | 7-mer Z-score
AGUGAAA | 1.1
UAUGAAA | 0.624
CGUCCUA | -0.411
CUUACAG | -0.197
CUACCUG | -0.311
GACCUUU | -0.186
AGGGCGG | 0.626
